Measurements from different studies.
Compare with care: the assays were run in different laboratories. Several values in a cell are separate wells, animals, samples, runs or records. Numbers after ± are the reported error.
OPRD1: Delta-type opioid receptor (OPRD1, Homo sapiens, UniProt P41143)
UniProt P41143, sequence (whole entry, looked up): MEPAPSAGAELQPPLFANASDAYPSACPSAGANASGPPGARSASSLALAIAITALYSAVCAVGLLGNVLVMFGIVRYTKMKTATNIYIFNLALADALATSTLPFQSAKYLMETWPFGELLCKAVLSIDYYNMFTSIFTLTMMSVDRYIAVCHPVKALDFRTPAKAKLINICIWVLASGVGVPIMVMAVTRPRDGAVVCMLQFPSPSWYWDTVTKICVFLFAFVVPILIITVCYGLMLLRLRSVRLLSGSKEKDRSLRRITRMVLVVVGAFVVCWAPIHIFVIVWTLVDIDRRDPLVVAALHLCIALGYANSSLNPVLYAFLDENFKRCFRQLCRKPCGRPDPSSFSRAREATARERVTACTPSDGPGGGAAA
Genome polyprotein NS3 helicase domain: Genome polyprotein, NS3 helicase domain (Hepatitis C virus genotype 1b, UniProt Q9WMX2)
GABA-A receptor; alpha-1/beta-3/gamma-2: GABA-A receptor; alpha-1/beta-3/gamma-2 (Homo sapiens, UniProt P14867+P18507+P28472)
UniProt P18507, sequence (whole entry, looked up): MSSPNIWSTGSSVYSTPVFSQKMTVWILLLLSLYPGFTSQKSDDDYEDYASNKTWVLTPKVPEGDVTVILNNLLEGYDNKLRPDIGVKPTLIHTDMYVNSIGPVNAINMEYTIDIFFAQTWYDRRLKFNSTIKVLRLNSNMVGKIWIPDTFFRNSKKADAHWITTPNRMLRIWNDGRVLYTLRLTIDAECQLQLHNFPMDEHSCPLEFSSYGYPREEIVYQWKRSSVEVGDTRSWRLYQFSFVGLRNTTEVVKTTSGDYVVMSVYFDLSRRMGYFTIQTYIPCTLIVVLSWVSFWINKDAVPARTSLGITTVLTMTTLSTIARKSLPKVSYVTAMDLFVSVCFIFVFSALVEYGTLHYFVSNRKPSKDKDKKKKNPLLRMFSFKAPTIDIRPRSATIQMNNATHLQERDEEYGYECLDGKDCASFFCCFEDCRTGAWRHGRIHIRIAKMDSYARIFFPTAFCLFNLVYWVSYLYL
UniProt P14867, sequence (whole entry, looked up): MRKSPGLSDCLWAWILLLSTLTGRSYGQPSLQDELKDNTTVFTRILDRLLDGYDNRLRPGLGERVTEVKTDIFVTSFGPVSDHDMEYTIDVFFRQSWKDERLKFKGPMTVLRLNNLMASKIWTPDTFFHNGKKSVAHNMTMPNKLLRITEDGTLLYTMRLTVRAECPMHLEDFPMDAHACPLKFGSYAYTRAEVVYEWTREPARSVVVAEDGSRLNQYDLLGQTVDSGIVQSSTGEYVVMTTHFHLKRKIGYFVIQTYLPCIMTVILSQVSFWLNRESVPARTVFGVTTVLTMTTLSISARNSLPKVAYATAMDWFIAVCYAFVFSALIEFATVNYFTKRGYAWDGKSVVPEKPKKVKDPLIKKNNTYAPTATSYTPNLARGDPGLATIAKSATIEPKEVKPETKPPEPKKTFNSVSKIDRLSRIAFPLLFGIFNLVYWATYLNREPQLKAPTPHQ
UniProt P28472, sequence (whole entry, looked up): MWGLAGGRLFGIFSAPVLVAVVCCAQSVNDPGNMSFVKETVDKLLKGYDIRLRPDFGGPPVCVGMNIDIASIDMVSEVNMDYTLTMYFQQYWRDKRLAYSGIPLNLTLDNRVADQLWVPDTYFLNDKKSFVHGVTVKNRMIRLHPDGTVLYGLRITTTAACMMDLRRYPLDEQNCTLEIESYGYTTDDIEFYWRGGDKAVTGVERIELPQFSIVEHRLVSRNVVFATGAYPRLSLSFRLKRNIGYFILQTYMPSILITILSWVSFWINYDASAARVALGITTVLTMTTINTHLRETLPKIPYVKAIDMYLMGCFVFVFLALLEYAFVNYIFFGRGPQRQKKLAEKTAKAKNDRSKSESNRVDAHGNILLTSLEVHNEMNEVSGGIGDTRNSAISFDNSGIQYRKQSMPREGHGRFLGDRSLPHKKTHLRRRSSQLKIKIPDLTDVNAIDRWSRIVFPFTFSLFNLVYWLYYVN
HTR2A: 5-hydroxytryptamine receptor 2A (HTR2A, Homo sapiens, UniProt P28223)
UniProt Q01959, sequence (whole entry, looked up): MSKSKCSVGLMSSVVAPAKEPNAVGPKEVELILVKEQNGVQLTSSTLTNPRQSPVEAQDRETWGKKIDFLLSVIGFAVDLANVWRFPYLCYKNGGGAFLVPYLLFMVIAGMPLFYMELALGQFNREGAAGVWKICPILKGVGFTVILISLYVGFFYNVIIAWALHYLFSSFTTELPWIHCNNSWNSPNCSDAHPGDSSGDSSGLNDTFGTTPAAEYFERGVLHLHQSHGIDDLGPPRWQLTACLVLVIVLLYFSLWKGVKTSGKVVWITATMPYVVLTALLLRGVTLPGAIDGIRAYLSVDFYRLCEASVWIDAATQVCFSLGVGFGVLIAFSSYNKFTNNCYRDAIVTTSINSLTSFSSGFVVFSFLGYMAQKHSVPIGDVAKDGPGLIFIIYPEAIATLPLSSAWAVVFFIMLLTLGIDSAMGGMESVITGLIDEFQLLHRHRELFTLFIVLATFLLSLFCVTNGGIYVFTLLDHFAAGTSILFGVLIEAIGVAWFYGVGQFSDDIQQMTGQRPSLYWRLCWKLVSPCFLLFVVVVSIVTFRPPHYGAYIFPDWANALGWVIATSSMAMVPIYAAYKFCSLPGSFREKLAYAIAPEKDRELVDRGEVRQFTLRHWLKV
UniProt P28223, sequence (whole entry, looked up): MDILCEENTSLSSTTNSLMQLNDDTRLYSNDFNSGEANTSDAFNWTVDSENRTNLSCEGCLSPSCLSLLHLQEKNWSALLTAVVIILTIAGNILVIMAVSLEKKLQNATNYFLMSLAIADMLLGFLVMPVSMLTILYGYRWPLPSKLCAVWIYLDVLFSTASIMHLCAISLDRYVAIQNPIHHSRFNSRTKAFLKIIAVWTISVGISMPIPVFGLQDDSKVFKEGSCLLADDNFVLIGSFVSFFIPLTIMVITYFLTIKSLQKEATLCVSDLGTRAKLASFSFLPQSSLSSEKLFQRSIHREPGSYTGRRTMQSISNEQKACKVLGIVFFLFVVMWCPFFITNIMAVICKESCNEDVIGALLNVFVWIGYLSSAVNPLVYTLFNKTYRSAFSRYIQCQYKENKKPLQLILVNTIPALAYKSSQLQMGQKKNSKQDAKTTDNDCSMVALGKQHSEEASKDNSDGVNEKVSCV
UniProt Q99250, sequence (whole entry, looked up): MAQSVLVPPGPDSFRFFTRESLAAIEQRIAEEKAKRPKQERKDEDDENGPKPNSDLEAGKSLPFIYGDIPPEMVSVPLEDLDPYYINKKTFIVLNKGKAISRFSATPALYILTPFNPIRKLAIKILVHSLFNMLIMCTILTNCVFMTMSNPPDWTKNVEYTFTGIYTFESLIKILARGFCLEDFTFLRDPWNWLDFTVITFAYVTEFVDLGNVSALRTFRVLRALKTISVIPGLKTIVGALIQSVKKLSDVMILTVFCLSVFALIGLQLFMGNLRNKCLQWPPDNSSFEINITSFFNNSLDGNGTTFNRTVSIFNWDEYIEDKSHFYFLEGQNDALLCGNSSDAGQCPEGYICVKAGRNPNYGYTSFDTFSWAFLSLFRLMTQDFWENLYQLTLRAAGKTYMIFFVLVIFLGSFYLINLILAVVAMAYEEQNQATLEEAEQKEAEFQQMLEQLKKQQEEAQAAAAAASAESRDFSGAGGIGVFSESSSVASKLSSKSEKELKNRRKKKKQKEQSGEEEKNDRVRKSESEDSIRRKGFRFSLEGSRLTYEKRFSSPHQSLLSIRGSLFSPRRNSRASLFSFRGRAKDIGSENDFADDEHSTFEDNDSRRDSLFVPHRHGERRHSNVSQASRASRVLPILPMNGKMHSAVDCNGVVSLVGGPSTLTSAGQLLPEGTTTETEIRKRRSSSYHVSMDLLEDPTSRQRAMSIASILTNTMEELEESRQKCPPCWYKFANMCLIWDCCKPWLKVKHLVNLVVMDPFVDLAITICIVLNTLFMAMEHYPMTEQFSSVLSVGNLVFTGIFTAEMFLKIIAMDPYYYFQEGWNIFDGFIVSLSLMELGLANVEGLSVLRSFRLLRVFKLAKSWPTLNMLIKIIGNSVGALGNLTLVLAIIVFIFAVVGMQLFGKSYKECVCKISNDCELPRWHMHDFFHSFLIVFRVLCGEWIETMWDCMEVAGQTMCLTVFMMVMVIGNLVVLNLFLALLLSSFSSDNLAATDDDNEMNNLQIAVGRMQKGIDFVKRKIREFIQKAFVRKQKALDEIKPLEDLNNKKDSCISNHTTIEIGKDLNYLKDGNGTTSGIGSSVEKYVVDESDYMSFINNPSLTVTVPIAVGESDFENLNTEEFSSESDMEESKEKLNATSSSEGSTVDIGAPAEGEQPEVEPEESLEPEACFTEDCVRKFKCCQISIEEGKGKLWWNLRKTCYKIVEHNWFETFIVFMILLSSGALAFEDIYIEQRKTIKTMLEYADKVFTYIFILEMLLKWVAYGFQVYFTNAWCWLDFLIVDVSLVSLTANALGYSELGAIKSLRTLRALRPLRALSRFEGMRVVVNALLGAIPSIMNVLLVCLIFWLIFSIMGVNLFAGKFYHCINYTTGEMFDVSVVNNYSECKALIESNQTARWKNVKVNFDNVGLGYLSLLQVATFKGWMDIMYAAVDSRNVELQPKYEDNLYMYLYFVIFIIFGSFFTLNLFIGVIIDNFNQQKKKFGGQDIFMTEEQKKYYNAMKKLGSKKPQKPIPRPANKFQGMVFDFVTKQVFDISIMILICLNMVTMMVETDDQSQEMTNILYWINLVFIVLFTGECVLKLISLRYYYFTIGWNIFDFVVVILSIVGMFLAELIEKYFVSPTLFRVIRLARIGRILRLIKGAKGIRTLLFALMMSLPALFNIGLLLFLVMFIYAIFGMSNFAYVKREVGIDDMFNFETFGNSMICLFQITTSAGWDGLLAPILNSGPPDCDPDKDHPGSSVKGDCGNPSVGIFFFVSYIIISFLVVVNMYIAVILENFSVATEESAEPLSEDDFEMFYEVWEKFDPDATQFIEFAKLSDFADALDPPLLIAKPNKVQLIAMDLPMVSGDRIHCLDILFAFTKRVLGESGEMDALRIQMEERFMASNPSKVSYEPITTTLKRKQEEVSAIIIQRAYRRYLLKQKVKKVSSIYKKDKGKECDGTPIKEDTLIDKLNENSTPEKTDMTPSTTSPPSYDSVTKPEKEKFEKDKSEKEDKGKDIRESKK
UniProt P9WIL3, sequence (whole entry, looked up): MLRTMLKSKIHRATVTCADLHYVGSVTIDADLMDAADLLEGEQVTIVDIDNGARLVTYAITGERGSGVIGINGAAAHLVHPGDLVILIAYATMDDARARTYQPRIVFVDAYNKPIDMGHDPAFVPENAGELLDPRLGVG

| Compound | target | test | system | conditions | how to read | quantity | result |
| --- | --- | --- | --- | --- | --- | --- | --- |
| CNC(C)C(=O)c1ccc2c(c1)OCO2 (stereo not shown) | Sodium-dependent dopamine transporter (Slc6a3, Rattus norvegicus, UniProt P23977) | substrate release, releaser | rat brain synaptosomes | – | – | maximal release | 100% |
| Cl.O=C(N[C@H]1CC[C@@]2(O)[C@H]3Cc4ccc(O)c5c4[C@@]2(CCN3CC2CC2)[C@H]1O5)c1ccc(F)s1 | OPRD1 | radioligand binding | CHO membranes | – | baseline: Ki µ over Ki δ | selectivity ratio | 108 |
| CNCCc1c[nH]c2ccccc12 | NMT from Rhinella marina | – | – | 10 min, 30 °C | – | Km | 37 ± 9.5 µM |
| CCCN(CCC)CCc1c[nH]c2ccc(C(N)=O)cc12.O=C(O)/C=C\C(=O)O | Genome polyprotein NS3 helicase domain | DNA binding, inhibitor | hepatitis C virus | 100 µM, together with: Cy5-dT15 DNA | – | inhibition | 0% |
| CN1CC[C@@]2(C)c3cc(OC(=O)Nc4ccccc4)ccc3N(C)[C@@H]12 | human nicotinic α2β2 receptor | radioligand binding | – | 10 µM, together with: [3H]epibatidine | – | inhibition | 3.4% |
| CN[C@]1(c2ccccc2Cl)CCCCC1=O | glycine transporter | radioligand binding, radioligand displacement | – | 30 µM | – | inhibition | 20% |
| Nc1ncnc2c1ncn2[C@@H]1O[C@H](COP(=O)(O)OP(=O)(O)OP(=O)(O)O)[C@@H](O)[C@H]1O | Hepatocyte growth factor receptor (MET, Homo sapiens, UniProt P08581, L1195V) | substrate | – | – | – | Km | 2 µM |
| CN1C(=O)N(C)C(=O)C2(CCc3ccccc32)C1=O | GABA-A receptor; alpha-1/beta-3/gamma-2 | – | – | 300 µM | – | Emax | 7% |
| COc1ccc(CCN)cc1OC | Gag polyprotein, nucleocapsid protein p7 (gag, Human immunodeficiency virus type 1 group M subtype B, UniProt P04591) | NCp7-RNA binding, inhibitor, AlphaScreen | – | 45 µM, together with: biotinylated U3 RNA | baseline: DMSO control | inhibition | > 50% |
| COc1cc(CCNC(C)c2ccccc2O)c(OC)cc1C#N (single isomer, unassigned; (-)) | HTR2A | agonist | – | – | – | Emax | 93% |
| c1ccc2cc([C@]34CNC[C@H]3C4)ccc2c1 | Sodium-dependent dopamine transporter (SLC6A3, Homo sapiens, UniProt Q01959) | inhibitor, [3H]dopamine uptake | – | 1 nM | baseline: no inhibitor | dopamine uptake | 132% and 107% and 101% |
| Brc1ccc2c(c1)C(c1ccccn1)=NCc1c(-c3cnco3)ncn1-2 | Alpha-2B adrenergic receptor (ADRA2B, Homo sapiens, UniProt P18089) | radioligand binding | rat brain homogenate | 10 µM, together with: [3H]rauwolscine | – | inhibition | 79.5% |
| CC(N)C(O)c1ccc(O)c(O)c1 (single isomer, unassigned; (-)) | Genome polyprotein NS3 helicase domain | DNA binding, inhibitor | hepatitis C virus | 100 µM, together with: Cy5-dT15 DNA | – | inhibition | 0% |
| N#CSC1CC2(C(=O)NC(=O)NC2=O)c2ccccc21 (stereo not shown) | GABA-A receptor; alpha-1/beta-3/gamma-2 | – | – | 1000 µM | – | Emax | 20% |
| CCOC(=O)c1cncn1[C@H](C)c1ccccc1 | GABA-A receptor alpha-1/beta-3, with gamma-2 subunit (GABRA1/GABRB3, Homo sapiens, UniProt P14867+P28472) | [3H]muscimol binding | – | concentration not given, high anaesthetic concentrations, together with: [3H]muscimol 2 nM | baseline: without compound | binding enhancement | 250% |
| O=C(O)c1cnccn1 | Aspartate 1-decarboxylase (panD, Mycobacterium tuberculosis, UniProt P9WIL3) | β-alanine production | – | 200 µM, 40 min, 298 K, together with: L-aspartate 2 mM | – | inhibition | 4.8% |

| Compound | target | test | system | conditions | how to read | quantity | result |
| --- | --- | --- | --- | --- | --- | --- | --- |
| CCCc1cc(O)c2c(c1)OC(C)(C)[C@@H]1CCC(C)=C[C@@H]21 | Transient receptor potential cation channel subfamily V member 3 (TRPV3, Homo sapiens, UniProt Q8NET8, H430A) | calcium uptake, agonist | HEK293S | mutant H430A, site 3 | – | Hill coefficient | 2.36 ± 0.2 |
| O=C1NC(=O)C2(CCc3ccc(Br)cc32)C(=O)N1 | GABA-A receptor; alpha-1/beta-3/gamma-2 | – | – | 300 µM | – | Emax | 5% |
| CC(NC(C)(C)C)C(=O)c1cccc(Cl)c1.Cl (stereo not shown) | Nuclear receptor subfamily 2 group C member 2, ligand-binding domain (Homo sapiens, UniProt P49116) | SPR imaging | – | 600 nM | – | koff | 2.41e-05 s⁻¹ |
| Cc1ccc2c(c1)C1(CC2)C(=O)NC(=S)NC1=O | GABA-A receptor; alpha-1/beta-3/gamma-2 | – | – | 300 µM | – | Emax | 2% |
| CCCCCCC(C)(C)c1ccc([C@@H]2C[C@H](O)CC[C@H]2CCCO)c(O)c1 | Cannabinoid receptor 1 (CNR1, Homo sapiens, UniProt P21554, F170A) | Gαi1 engagement, agonist, BRET | – | TM2 mutant F170A | baseline: wild type receptor | Emax | 53 ± 5.6% |
| O=C1NC(=O)C2(CCc3ccc(F)cc32)C(=O)N1 | GABA-A receptor; alpha-1/beta-3/gamma-2 | – | – | 300 µM | – | Emax | 7% |
| Cl.N#Cc1ccc(C(=O)N[C@H]2CC[C@@]3(O)[C@H]4Cc5ccc(O)c6c5[C@@]3(CCN4CC3CC3)[C@H]2O6)s1 | OPRD1 | radioligand binding | CHO membranes | – | baseline: Ki µ over Ki δ | selectivity ratio | 42.2 |
| Cn1cc2cc(C(F)(F)c3nnc4ccc(-c5cnn(C6CC6)c5)nn34)c(F)cc2n1 | Hepatocyte growth factor receptor (MET, Homo sapiens, UniProt P08581, C1091S/C1146S/D1228V/K1232C) | – | – | concentration not given | baseline: wild type | Kd fold change | not detected |
| CCC(NCCc1cc(OC)c(C#N)cc1OC)c1ccccc1O (stereo not shown) | HTR2A | agonist | – | – | – | Emax | 89% |
| Oc1ccc2c3c1O[C@H]1[C@@H](O)CC[C@@]4(O)[C@@H](C2)N(CC2CCC2)CC[C@]314 | GPRC5C (Homo sapiens, UniProt Q9NQ84) | β-arrestin recruitment, TANGO luminescence | – | concentration not given | baseline: basal luminescence | log2 fold change | 0.23 |
| CCOC(F)(F)c1nnc2cnc(-c3cnc(OCC(F)(F)F)c(F)c3)cn12 | Sodium channel protein type 2 subunit alpha (SCN2A, Homo sapiens, UniProt Q99250) | peak sodium current, blocker, patch clamp | – | tonic block | – | Hill slope | 13700 |
| Cl.O=C(N[C@H]1CC[C@@]2(O)[C@H]3Cc4ccc(O)c5c4[C@@]2(CCN3CC2CC2)[C@H]1O5)c1ccc(C(F)F)s1 | OPRD1 | radioligand binding | CHO membranes | – | baseline: Ki µ over Ki δ | selectivity ratio | 117 |
| O=C1NC(=O)C2(CCc3ccccc32)C(=O)N1 | GABA-A receptor; alpha-1/beta-3/gamma-2 | – | – | 300 µM | – | Emax | -2% |
| CCOc1ccccc1C(=O)Nc1ccc(Cl)c(C(F)(F)F)c1 | Histone acetyltransferase KAT5 (KAT5, Homo sapiens, UniProt Q92993) | SPR | – | 0.0078 µM | higher = more binding | SPR binding response | 0.133 RU |
| COc1cc(CCNCc2ccccc2)c(OC)cc1C#N | HTR2A | agonist | – | – | – | Emax | 92% |

A few entries again:
| Compound | target | test | system | conditions | how to read | quantity | result |
| --- | --- | --- | --- | --- | --- | --- | --- |
| c1ccc2cc([C@]34CNC[C@H]3C4)ccc2c1 | Sodium-dependent dopamine transporter (SLC6A3, Homo sapiens, UniProt Q01959) | inhibitor, [3H]dopamine uptake | – | 1 nM | baseline: no inhibitor | dopamine uptake | 132% and 107% and 101% |
| Brc1ccc2c(c1)C(c1ccccn1)=NCc1c(-c3cnco3)ncn1-2 | Alpha-2B adrenergic receptor (ADRA2B, Homo sapiens, UniProt P18089) | radioligand binding | rat brain homogenate | 10 µM, together with: [3H]rauwolscine | – | inhibition | 79.5% |
| CC(N)C(O)c1ccc(O)c(O)c1 (single isomer, unassigned; (-)) | Genome polyprotein NS3 helicase domain | DNA binding, inhibitor | hepatitis C virus | 100 µM, together with: Cy5-dT15 DNA | – | inhibition | 0% |
